Measured values from different studies.
± gives the spread as reported.

SMILES	assay	test system	conditions	scale	quantity	value
O=C(Nc1nc2cccc(-c3ccc(CN4CCS(=O)(=O)CC4)cc3)n2n1)C1CC1	item: renal and urinary disorders	rheumatoid arthritis patients	oral, 150 mg once daily, 4 weeks, any relatedness		treatment-emergent adverse events	0%
O=C(O)CCN1C(=O)CSC1=S		Bama miniature pig, excised skin	10 mM, 24 h, 30% ethanol in saline donor		permeation rate	1.52 ± 0.076 µmol/cm²/h
Cc1cc(C)c(CNC(=O)c2cc(Cl)c3c(c2C)O[C@@](C)([C@H]2CC[C@H](N(C)C)CC2)O3)c(=O)[nH]1		human male, urine and feces	oral, 200 mg, 120 h	relative to: dose	radioactivity recovery	90%
CNC(=O)c1ccc(-c2cnc3ncc(Cc4ccc5ncccc5c4)n3n2)cc1F	item: Dizziness, all grades	hepatocellular carcinoma patients	oral, 600 mg twice daily, expansion cohort, any causality		patients with adverse event	9%
CN(C(=O)n1cnc(-c2cccnc2)c1)C1CCCCC1		Wistar rat, medulla oblongata	oral, 10 mg/kg/day of BIA 10-2474, 72 h, repeated 5 days		concentration	7.2 ± 0.1 ng/g
Cc1ccc([C@@H]2O[C@H](CO)[C@@H](O)[C@H](O)[C@H]2O)cc1Cc1ccc(-c2ccc(F)cc2)s1		Japanese type 2 diabetes patients	25 mg, day 4, 24 h urine collection	relative to: baseline	urinary potassium excretion change	-2.24 mEq
C=CC(=O)NC1CCN(c2ncc3ncnc(Nc4ccc(Oc5ccc6c(c5)ncn6C)c(C)c4)c3n2)CC1	item: dry mouth	human male	oral, dose not given, CTCAE on-treatment AEs		adverse events incidence	0%
Cc1c(-c2ccc(N3CCc4cccc(C(=O)Nc5nc6ccccc6s5)c4C3)nc2C(=O)O)cnn1CC12CC3(C)CC(C)(C1)CC(OCCNCC[C@H](O)CO)(C3)C2		anaesthetised male beagle dogs	intravenous infusion, 0.3 mg/kg/min, 60 min	relative to: vehicle	systemic vascular resistance change	-11%
c1cc2ccc3ccc4ccc5cccc6c(c1)c2c3c4c56		PDMS-water partitioning	PAH compilation		literature range of log K	5.02 to 5.61 log units
O=C(Cc1ccc2ccccc2c1)Nc1cc(C2CCC2)[nH]n1		extracted mouse plasma	375 ng/mL, 24 h, 4 °C, autosampler stability		accuracy	102%
COc1cc2nccc(Oc3ccc(NC(=O)NC4CC4)c(Cl)c3)c2cc1C(N)=O	UPLC-MS/MS	Sprague-Dawley rat, male, plasma	oral, 10 mg/kg, without azole co-treatment		apparent clearance CLz/F	34.8 ± 5.83 mL/min/kg
CC[C@H](C)[C@H](NC(=O)[C@H](C)N)C(=O)N[C@@H](CCCCN)C(=O)N[C@@H](C)C(=O)N[C@H](C(=O)N[C@@H](C)C(=O)N[C@@H](CCCCN)C(=O)N[C@@H](C)C(=O)N[C@@H](C)C(=O)NCC(N)=O)[C@@H](C)CC	circular dichroism	10 mM SDS	100 µM		helix content	6%
COc1ccc2[nH]c([S+]([O-])Cc3ncc(C)c(OC)c3C)nc2c1 (centres unmarked)		healthy Chinese volunteers, CYP2C19 intermediate metabolizers	oral, 20 mg, enteric-coated capsules		t1/2	1.17 ± 0.68 h
Cc1cc([C@H]2C[C@H]3[C@@H](C)SC(N)=N[C@@]3(c3ccc(F)cc3F)CO2)on1		male 129/SVE mouse, brain	subcutaneous, 50 mg/kg, 18 h		brain concentration	139 nM
CC[C@H](C)[C@@H]1NC(=O)[C@@](C)(NC(=O)[C@H](CCCNC(=N)N)NC(=O)[C@H](CC(C)C)NC(=O)[C@@H](NC(=O)[C@H](CCC(N)=O)NC(=O)[C@H](CC(C)C)NC(C)=O)[C@@H](C)O)CCCC=CCCC[C@@](C)(C(=O)N[C@@H](CC(C)C)C(=O)N[C@@H](Cc2ccc3ccccc3c2)C(N)=O)NC(=O)[C@H](CCCNC(=N)N)NC(=O)[C@H](CCC(N)=O)NC1=O	LC-MS	BALB/c nude mouse, plasma	2 µM, 0.25 h		remaining compound	104%
O=C(/C=C/CCc1ccc(O)cc1)/C=C/c1ccc(O)cc1		nude mouse MCF7 xenograft	20 mg/kg, day 6		body weight	20.5 ± 1.04 g
Cl.[2H]C([2H])([2H])CC(=O)c1cnc(NC(=O)C2CC2)cc1Nc1cccc(-c2ncn(C([2H])([2H])[2H])n2)c1OC	geometric mean	human	oral, 10 mg once daily, day 1, fasted, liquid, multiple dose		Vz/F	136 L
Cc1cc(-c2nccc3c2ccn3CC(=O)Nc2ccc(-c3cnccn3)cn2)ccn1		human	5 mg once daily, multiple ascending dose		subjects with cardiac disorders	25%
C[C@@H](N)C1CCN(S(=O)(=O)c2cccc3cnccc23)CC1		healthy volunteers, plasma	oral, 150 mg, fed, single dose		AUC(0-t)	42 ng·h/mL

SMILES	assay	test system	conditions	scale	quantity	value
Cc1ccc(Sc2ccccc2N2CCNCC2)c(C)c1	item: Pollakiuria	healthy adult men	oral, 5 mg daily, 12 days		participants with TEAE	0%
CN1CC(=O)N2[C@H](c3ccc4c(c3)OCO4)c3[nH]c4ccccc4c3C[C@@H]2C1=O		human plasma	1.50 ng/mL, freeze-thaw at -20 °C		accuracy	100%
CCn1cc(C(=O)N2CCOCC2)c(=O)c2cc(NC3Cc4ccccc4C3)cnc21		human, fed	oral suspension, 2000 mg/day twice daily, day 1, arithmetic mean		Cmax	1360 ng/mL
COc1ncc(-c2nc3c(n2C(C)C)[C@H](c2ccc(Cl)cc2)N(c2cc(Cl)cn(C)c2=O)C3=O)c(OC)n1		human patients, plasma	oral, 20 mg, 0-24 h, low-dose arm, cycle 2 day 1		AUC(0-t) geometric mean	2290 ng·h/mL
Cc1nc2cccc(OCC(C)(C)C(=O)NC(C)C)c2c(N)c1C(=O)O		male Swiss albino CD-1 mouse, bone marrow	oral, 1000 mg/kg, 48 h		PCE/NCE ratio	0.85
CNCCOC12CC3(C)CC(C)(CC(Cn4ncc(-c5ccc(N6CCc7cccc(C(=O)Nc8nc9ccccc9s8)c7C6)nc5C(=O)O)c4C)(C3)C1)C2		anaesthetised male beagle dogs	intravenous bolus, 0.03 mg/kg, 105 min	relative to: baseline	cardiac output change	-41%
COc1ccc2c(c1)CN(C(=O)CCN1CCC(Cc3ccccc3)CC1)CC[S@@+]2[O-]	telemetry	conscious male beagle dogs	intravenous, 4 mg/kg, 24 h		QT interval	222 ± 3 ms
CNC(=O)c1ccc(-c2cnc3ncc(Cc4ccc5ncccc5c4)n3n2)cc1F		Japanese patients	oral, 400 mg, any grade		Pneumonitis dose reduction/interruption	1%
CC(C)(C(=O)N1CCOc2c(C#N)cncc2C1)C(F)F	item: phlebitis	human, both sexes	oral, 20 mg twice daily, 14 days, multiple ascending dose		subjects with TEAE	0%
COc1ccc2c(=O)n(C)c(-c3ccccc3)nc2c1		male Sprague-Dawley rat, bladder	oral, 30 mg/kg, 0.25 h		tissue concentration	71.5 ng/g
C[Si](C)(C)O[Si](C)(C)C		1-octanol/water	concentration not given		entropy of phase change	0.164 kJ/(mol·K)
Cc1cc(NC2CCN(C(=O)OC3CCN(C(=O)/C=C/CN(C)C)C3)CC2)n2ncc(C(C)C)c2n1 (centres unmarked)	Phase I dose escalation CTCAE v4.0, item: platelet count decreased	patients with advanced solid tumours	dose not given, QD dosing grade 3 or higher		patients with adverse event	9%
CNC(=O)c1cc(Oc2ccc(NC(=O)Nc3ccc(Cl)c(C(F)(F)F)c3)c(F)c2)cc[n+]1[O-]	short-term stability	mouse plasma	750 ng/mL, 8 h, room temperature		accuracy	101%
CCN1/C(=C/C(C)=O)Sc2ccc(F)cc21		cynomolgus monkey	oral, 30 mg/kg, 1 h post-dose	relative to: pre-dose	systolic blood pressure change	96.4 ± 4.8%
C[C@@H](Oc1ccc(S(C)(=O)=O)cc1C(=O)N1C[C@@H]2C[C@]2(c2cc(C(F)(F)F)on2)C1)C(F)(F)F		young healthy humans, plasma and urine	oral, 25 mg, 0 to 24 h, single dose		renal clearance	4.04 mL/min
C[C@H]1Oc2cc(cnc2N)-c2c(nn(C)c2C#N)CN(C)C(=O)c2ccc(F)cc21		Balb/c nude mouse female, plasma	5 mg/kg single dose, 1 h		free plasma concentration	898 nM
COc1ccc2[nH]c([S@+]([O-])Cc3ncc(C)c(OC)c3C)nc2c1		human male, dried plasma spots	dose not given, mean of (R)- and (S)-enantiomers, together with: fluvoxamine and voriconazole	relative to: inhibition over control	AUC fold change	8.1
C[C@H]1CN(C(=O)CC#N)[C@]12CCN(c1ncnc3[nH]ccc13)C2		healthy human	oral, 1.5 mg, single dose		subjects with Nausea	0%
COc1cc(Nc2ncc3c(n2)-c2ccc(Cl)cc2C(c2c(F)cccc2OC)=NC3)ccc1C(=O)O	item: Dizziness, all grades	cancer patients, phase 1/2	oral, dose not given, together with: pembrolizumab		patients with adverse event	13%

SMILES	assay	test system	conditions	scale	quantity	value
N[C@@H](CC(=O)N1CCn2c(nnc2C(F)(F)F)C1)Cc1cc(F)c(F)cc1F		human, female, plasma	oral, 100 mg single dose		AUC(0-2) divided by body mass index	20.3 ± 5.34 ng·h/mL
C=C[C@@](C)(/C=C/c1ccc(O)cc1)CCC=C(C)C		rat plasma	200 ng/mL, 2 weeks, -70 °C, post-preparative stability		accuracy	108%
CC(C)n1c(C2CCNCC2)nc2c([N+](=O)[O-])c(Br)c(Br)cc21		human, urine	oral, 100 mg, 0-24 h, median, single dose		amount excreted in urine	1.26 mg
O=C1c2ccncc2C(=O)c2c1[nH]c1ccccc21		Sprague-Dawley rat male, plasma	intravenous, 5 mg/kg		volume of distribution	20.3 ± 6 L
C[C@@H]1CCO[C@H]2Cn3cc(C(=O)NCc4ccc(F)cc4F)c(=O)c(O)c3C(=O)N12	population PK, post-hoc	children aged 0.25 to 5 years, 6 to <10 kg, plasma	oral, 15 mg dispersible tablet, steady state, geometric mean		AUC(0-24)	60100 ng·h/mL
CC(C)[C@H](C(=O)Nc1ccc(C(=O)NO)cc1)c1ccccc1		whole blood	100 ng/mL, 1 h, 4 °C, stability on ice		accuracy	109%
Cc1cccc(CNC(=O)c2cn(CCNC(=O)c3ccccc3Sc3c([N+](=O)[O-])ncn3C)c3cc4c(cc3c2=O)OCO4)n1	LC-MS/MS	CD-1 mouse, whole blood	1 µM, 2 h		remaining compound	75.1%
O=C(O)C1=CO[C@@H](O[C@@H]2O[C@H](CO)[C@@H](O)[C@H](O)[C@H]2O)[C@@H]2C(CO)=CC[C@H]12	post-procedure stability	rat plasma	200 ng/mL, 3 h, room temperature		accuracy	115%
CC(C)C[C@H](N)C(=O)N[C@@H](Cc1c[nH]c2ccccc12)C(=O)N[C@@H](Cc1c[nH]c2ccccc12)C(=O)N[C@@H](CCCNC(=N)N)C(=O)N[C@@H](Cc1c[nH]c2ccccc12)C(=O)N[C@@H](Cc1c[nH]c2ccccc12)C(=O)N[C@@H](CCCNC(=N)N)C(=O)N[C@@H](Cc1c[nH]c2ccccc12)C(=O)N[C@@H](CCCNC(=N)N)C(=O)O	circular dichroism	30 mM SDS			helix content	3.65%
CNC(=O)c1cc(Oc2ccc(NC(=O)Nc3cc(C(C)(C)C)nn3-c3ccc4ncccc4c3)c(F)c2)ccn1	item: worst grade 1	human	oral, dose not given, cycles 1 and 2, Medium AUC(0-4 h) subgroup		patients with any AE of special interest	43%
Cc1ccc(C(=O)N(CCCN)C(c2nc3snc(C)c3c(=O)n2Cc2ccccc2)C(C)C)cc1 (centres unmarked)	pneumonia grade ≥3 (CTCAE)	human patients	intravenous, 10 mg/day		patients with adverse event	0%
N#Cc1ccc2c(c1)[C@H]1CCCN(C(=O)c3ccc4[nH]cnc4c3)[C@H]1C2		human	240 mg, day 15		minimum ACTH level	1.2 pmol/L
NC1(C(=O)N[C@@H](CCO)c2ccc(Cl)cc2)CCN(c2nc[nH]c3nccc2-3)CC1		metastatic CRPC patients	400 mg b.i.d., grade 3 to 4, treatment-related, together with: enzalutamide 160 mg daily		incidence of Arthralgia	0%
CNc1ccc(-c2nc3ccc(O)cc3s2)cc1 [carbon-11 labelled]	ex vivo biodistribution	APP/PS1 mouse, AD model, skin	intravenous, 30 min		SUV	0.295 ± 0.144
O=C(COc1ccc(Cl)cc1)NC12CC(c3nnc([C@H]4C[C@@H](OC(F)(F)F)C4)o3)(C1)C2		healthy human volunteers fasted, plasma	oral, 400 mg single dose, geometric mean		Cmax	4250 nM
C=CC(=O)Nc1cc(Nc2nccc(-c3cn(C4CC4)c4ccccc34)n2)c(OC)cc1N(C)CCN(C)C		BALB/c nude mouse, LU0387 xenograft, serum	oral, 40 mg/kg		ALP activity	100 ± 8.66 U/L
C[C@H](N[C@@H](CCc1ccccc1)C(=O)O)C(=O)N1[C@H](C(=O)O)C[C@H]2CCCC[C@@H]21		processed human plasma	1000 pg/mL, 48 h, 4 °C	relative to: nominal	autosampler stability	93.2 ± 14%
CCc1cc(C(=O)NC)c2nccc(N3CCc4c(cc(Cn5ccnc5)cc4-c4cn(C)nc4C(F)(F)F)C3=O)c2c1	item: CREA	Sprague Dawley rat	oral, 50 mg/kg once daily, 7 days	relative to: vehicle	change in clinical chemistry or haematology parameter	-5.6%

A few entries again:
SMILES	assay	test system	conditions	scale	quantity	value
CCn1cc(C(=O)N2CCOCC2)c(=O)c2cc(NC3Cc4ccccc4C3)cnc21		human, fed	oral suspension, 2000 mg/day twice daily, day 1, arithmetic mean		Cmax	1360 ng/mL
CC(C)n1c(C2CCNCC2)nc2c([N+](=O)[O-])c(Br)c(Br)cc21		human, urine	oral, 100 mg, 0-24 h, median, single dose		amount excreted in urine	1.26 mg
Cc1cccc(CNC(=O)c2cn(CCNC(=O)c3ccccc3Sc3c([N+](=O)[O-])ncn3C)c3cc4c(cc3c2=O)OCO4)n1	LC-MS/MS	CD-1 mouse, whole blood	1 µM, 2 h		remaining compound	75.1%
c1cc2ccc3ccc4ccc5cccc6c(c1)c2c3c4c56		PDMS-water partitioning	PAH compilation		literature range of log K	5.02 to 5.61 log units
Cl.[2H]C([2H])([2H])CC(=O)c1cnc(NC(=O)C2CC2)cc1Nc1cccc(-c2ncn(C([2H])([2H])[2H])n2)c1OC	geometric mean	human	oral, 10 mg once daily, day 1, fasted, liquid, multiple dose		Vz/F	136 L
C[C@@H](Oc1ccc(S(C)(=O)=O)cc1C(=O)N1C[C@@H]2C[C@]2(c2cc(C(F)(F)F)on2)C1)C(F)(F)F		young healthy humans, plasma and urine	oral, 25 mg, 0 to 24 h, single dose		renal clearance	4.04 mL/min
Cc1cc(-c2nccc3c2ccn3CC(=O)Nc2ccc(-c3cnccn3)cn2)ccn1		human	5 mg once daily, multiple ascending dose		subjects with cardiac disorders	25%
